Published values of several laboratories.
A part holds a random share of what one study measured. Changes are numbered by the printed parent chain.

Sample 1 — technique: RNA Bind-n-Seq; molecule type: RNA; matrix: in vitro; tested at: 365 nM; relative to: no-protein control; direction: higher = stronger binding; quantity: RBNS enrichment (R)
Target: RNA binding protein fox-1 homolog 2, RRM domain, GST-SBP tag (RBFOX2, Homo sapiens, UniProt O43251-10, residues 100-194)
Setting: natural RNA segment, single round, ends assumed
All sequences stand within: GGGAGUUCUACAGUCCGACGAUC … UGGAAUUCUCGGGUGCCAA
Residues (chain): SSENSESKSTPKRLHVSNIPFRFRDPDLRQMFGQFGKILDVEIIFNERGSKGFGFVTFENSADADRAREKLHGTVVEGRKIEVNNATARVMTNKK
Strand = CCGCCCACCUGUCUGCACUCCUGUCACUUGUAGGCCUGGCUGACUUACAGAUUUUUCCUUCCCCAGCUUGUGUCCACCCCUGUGCCAGGAGAGGUAGCACCAUCUCCUGG; result = 0.625
Strand = GGUAUACGGUGCUAAUUAGUAAAAUAUUGAAGGCAAUAUUUUACUGCUAGCUUGCAAAGUUAUGAGAGUUUAAAAAAUAAAAUAUAUGAAAAUAUGUAAAGCUGUUGAGA; result = 0.819
Strand = AGCCAGAGAGGGGGGUCCAAGUGCGGGAUGUGGGUGGCUCUGUGGUUCAGUGGCUCUGUGGUAGUUCCUAGCACUGCAGACUUCAUGACUCCCCACUUAAGUCCAAGUCA; result = 0.599
Strand = CUUCUGGUGGAGCUGUGCCUGGCCCUGUAGGCCCAGGGUUGGCUGGAAGGUGACAUCUGUGUUUCGUUUUAGCUGAGGUUGGCAGAAACGUUCCCAAACUCCCCCAGCCC; result = 0.285
Strand = UUUUAAAAUAGAGCUUUGUAUACUAUGUAAGCAGUUUUAUAUCAGCUUUGUAAAAGCUUUGGUGUUAAGAGUCAAUAUUUUUUGGCUUUGUAGAUAAAGACUUAAAUUUU; result = 0.547
Strand = UAGUUGGCUUUGUUUUCCUUAAAGGAUAAAACUUGCAUUGGACAAUCAAGGACAAUGAAGCCUCACCAAUAUAUUUCUUGUGGUGCUGGGAUCAAACCCAGGACAGCAUU; result = 0.414
Strand = CUCGGUCCUGAGUUCAAUUCCCAGCAACCACAUGGUGGCUCAUAGCCAUCUGUAAUGGGAUUUGGUGCCCUCUUCUGGUGUGUCUGAAAACAGCUACAGCAUACCCAUAU; result = 0.195
Strand = GUGGCACGAUCUUGGCUUACUGCAACCUCCGUCUCCCAGGUUCAAGCGAUUCUCUUGCCUCAGCCUCCAGAGUAGCUGGGAUUACAGGCGCCCGCCAUCGUGCCCAGCUA; result = 0.323
Strand = UCCAUGUUGAAUGGUACAAAAUAUUUCUGUGAAACUAACAGGAAGAUAUUUUCAGAUAACUAGGAUAACUUGUUGCUUUGUUACCCAGCCUAAUUGAAGAGUGGCAGAGG; result = 0.325
Strand = GACUAUGGUAGAGACUUGCUGCUCCUAACUCCCCAGUUACCCACCCUCCUCUGCCCUUUCUCGGGAUACCUUCUGUCCUUCCAUCCUGCCCUGUACUGCCCUCUGACUCC; result = 1.72
Strand = UCAGCGCAGUUUUGUUUUGUGUGUCCAUUGGAUUACAAACUUUAUUAAAAAAUAUAAAACACACCAAGUGUGAGUGUGAUUGUCACUUGGGUGGGAGGACGAACCAUGGG; result = 0.504
Strand = AUAGGUACCCAAGAUAUUGUAUUUGGAGAAGUAGAUCGGUGGCAGGGGAGCAGCGUUUGAUCCCCCCUGCCUAUCAGCUUCUUCUGUGGAGCCUGUUCCUCACUGGAAAU; result = 0.325

Sample 2 — target: CCND3, cyclin fold, Cln2 fusion (human); technique: yeast growth competition, sequencing; matrix: yeast; setting: weak parent motif; relative to: not given; direction: higher = stronger binding; quantity: normalised enrichment score
Starting sequence: E2F1 docking peptide (human); PPVKRRLDFETDH; partner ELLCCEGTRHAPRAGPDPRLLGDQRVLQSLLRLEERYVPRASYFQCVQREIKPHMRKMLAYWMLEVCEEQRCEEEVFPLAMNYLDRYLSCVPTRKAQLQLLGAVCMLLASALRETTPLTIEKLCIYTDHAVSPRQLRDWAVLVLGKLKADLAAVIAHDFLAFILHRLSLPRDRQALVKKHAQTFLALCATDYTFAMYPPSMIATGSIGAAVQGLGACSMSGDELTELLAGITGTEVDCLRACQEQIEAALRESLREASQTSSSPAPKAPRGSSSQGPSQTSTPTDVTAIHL
Substitution = PPVMRRLDFETDH [K4M]; result = 0.354
Substitution = PPVKRRLDFRTDH [E10R]; result = 0.0399
Substitution = PPVKRRLDVETDH [F9V]; result = 0.0355
Substitution = PPVKSRLDFETDH [R5S]; result = -0.281
Substitution = PPVKRRMDFETDH [L7M]; result = 0.43
Substitution = PPVKRRLDMETDH [F9M]; result = 0.121
Substitution = PPVKRRLDFITDH [E10I]; result = 0.141
Substitution = PPVLRRLDFETDH [K4L]; result = -0.267
Substitution = PPVERRLDFETDH [K4E]; result = 0.0316
Substitution = PPVKRRLDFETKH [D12K]; result = 0.102
Substitution = PNVKRRLDFETDH [P2N]; result = 0.381
Substitution = PPVKRRLDHETDH [F9H]; result = 0.144

Sample 3 — technique: aptamer microarray, sandwich; molecule type: DNA with 2'F-ANA; matrix: in vitro; tested at: 200 nM; with: Cy3 exosite-II aptamer, 400 nM; direction: higher = stronger binding; quantity: mean fluorescence intensity; strand: GGTTGGTGTGGTTGG
Target: Prothrombin, mature alpha-thrombin (F2, Homo sapiens, UniProt P00734)
Setting: whole 15-mer aptamer, many near background
Modification = 2'F-ANA at 2 4 5 8 11 12 13 14 15; result = 48 a.u.
Modification = 2'F-ANA at 1 3 5 6 7 8 12 15; result = 144 a.u.
Modification = 2'F-ANA at 1 3 6 7 8 9 13; result = 249 a.u.
Modification = 2'F-ANA at 2 3 4 8 10 13 14; result = 190 a.u.
Modification = 2'F-ANA at 4 5 6 8 10 13; result = 55.6 a.u.
Modification = 2'F-ANA at 2 3 4 5 7 10 11 12 14; result = 47.2 a.u.
Modification = 2'F-ANA at 1 5 7 11 12 14 15; result = 46 a.u.
Modification = 2'F-ANA at 3 7 9 12 13 15; result = 1200 a.u.
Modification = 2'F-ANA at 1 3 5 6 7 8 11 13 15; result = 53.2 a.u.
Modification = 2'F-ANA at 4 6 10; result = 87.9 a.u.
Modification = 2'F-ANA at 2 5 6 9 10 11 13 14; result = 47 a.u.
Modification = 2'F-ANA at 1 5 9 10 12 13; result = 46.3 a.u.
Modification = 2'F-ANA at 1 3 8 12 15; result = 692 a.u.
Modification = 2'F-ANA at 2 4 6 8 9 11; result = 244 a.u.

Single results of other studies
Molecule = PhoQ, residues 284 288 289 292 302 303 AAQSYM; target = PhoP, residues 12 14 15 18 19 AQALL (Escherichia coli, UniProt P23836); test = Sort-seq, item: YFP reporter; system = E. coli; conditions = PhoQ-PhoP variant library, with: 10 µM Mg2+; scale = relative to: high Mg2+ state, higher = stronger signaling; quantity = fold induction; result = 3.14
